{"data": "Experimental data of several laboratories", "organism": "Saccharomyces cerevisiae", "note": "± marks the error that the study gave."}
{"SMILES": "CC1=NN(c2ccccc2F)C(=O)/C1=N\\Nc1ccc(S(N)(=O)=O)cc1", "setting": "100 µg/mL", "quantity": "glucose uptake", "value": "43.2%"}
{"SMILES": "O=C(c1ccc(Cl)c([N+](=O)[O-])c1)N1CCN(c2ccccc2F)CC1", "assay": "endocytic recycling", "system": "wild type", "setting": "20 µM, 2 h, 30 °C", "scale": "relative to: cells", "quantity": "cells with PM GFP-Snc1", "value": "5%"}
{"SMILES": "COc1ccc(NC(=O)COc2cccc(OCC(C)C)c2)cc1", "assay": "microbial growth", "quantity": "MIC", "value": "1 µg/mL"}
{"SMILES": "O=C1C(NCCc2ccc(O)cc2)=CC2=NCCc3c(Br)[nH]c1c32", "assay": "cell growth, liquid culture", "system": "BY4741", "setting": "100 µM, 24 h", "quantity": "inhibition", "value": "7.9%"}
{"SMILES": "CCCC(C)Oc1cccc(NC(=O)c2cccnc2)c1 (stereo not drawn)", "assay": "microbial growth", "quantity": "MIC", "value": "~16 µg/mL"}
{"SMILES": "O=C(c1ccc(Cl)c([N+](=O)[O-])c1)N1CCN(c2ccc(F)cc2)CC1", "assay": "growth", "system": "sec14∆/SEC14 diploid", "quantity": "IC50", "value": "7.4 ± 1.2 µM"}
{"SMILES": "O=C1C(=O)c2[nH]cc3c2C(=C1I)NCC3", "assay": "cell growth, liquid culture", "system": "BY4741", "setting": "100 µM, 24 h", "quantity": "inhibition", "value": "0%"}
{"SMILES": "COc1ccccc1N1CCN(C(=O)c2ccc(Cl)c([N+](=O)[O-])c2)CC1", "assay": "growth", "system": "ho∆/HO diploid control", "quantity": "IC50", "value": "> 100 µM"}
{"SMILES": "Cc1ccc(S(=O)(=O)n2cc3c4c2C(=O)C(NCCc2ccc(O)cc2)=CC4=NCC3)cc1", "assay": "cell growth, liquid culture", "system": "BY4741", "setting": "100 µM, 24 h", "quantity": "inhibition", "value": "35.2%"}
{"SMILES": "CC1=NN(c2cccc(F)c2)C(=O)/C1=N\\Nc1ccc(S(N)(=O)=O)cc1", "setting": "500 µg/mL", "quantity": "glucose uptake", "value": "39.8%"}
{"SMILES": "COc1ccc(N2CCN(C(=O)c3ccc(Cl)c([N+](=O)[O-])c3)CC2)cc1", "assay": "CPY trafficking", "setting": "10 µM", "quantity": "mature CPY", "value": "72%"}
{"SMILES": "O=C1C(NCCc2cc(Br)c(O)c(Br)c2)=CC2=NCCc3c[nH]c1c32", "assay": "cell growth, liquid culture", "system": "BY4741", "setting": "100 µM, 24 h", "quantity": "inhibition", "value": "66%"}
{"note": "A few entries again:"}
{"SMILES": "COc1ccc(N2CCN(C(=O)c3ccc(Cl)c([N+](=O)[O-])c3)CC2)cc1", "assay": "CPY trafficking", "setting": "10 µM", "quantity": "mature CPY", "value": "72%"}
{"SMILES": "CCCC(C)Oc1cccc(NC(=O)c2cccnc2)c1 (stereo not drawn)", "assay": "microbial growth", "quantity": "MIC", "value": "~16 µg/mL"}
